Experimental data from different studies.
Values joined by “and” are separate records of one study, mostly repeats; a detail may differ. Converted amounts (≈) assume the structure as drawn.

For CC(C)n1ncc2c(C(=O)NCC3(C)CNC3)cc(C3CC3)nc21, the cell protection was 2.26% and 2% (coxsackievirus A16; RD; 0.05 µM).
The MIC50 of CC(=O)NC[C@H]1CN(c2ccc(N3CCOCC3)c(F)c2)C(=O)O1 is reported as 0.5 mg/L (≈ 1.48 µM) (Staphylococcus epidermidis; broth microdilution; methicillin-resistant isolates).
COc1ccc(OCCCO)cc1-c1cn2cc(-c3nnc(NCCCCc4ccccc4)o3)ccc2n1 gave a parasite growth of 45.6% (Plasmodium falciparum; nanoluciferase readout; 3D7 Hyp1-Nluc; 2 µM, 72 h; baseline: DMSO).
COC(C)(C)C(=O)N1CCC[C@H](C(=O)NCc2nc(-c3ccccc3)cs2)C1 gave an EC50 of > 5 µM (Plasmodium falciparum; SYBR Green growth; asexual blood-stage parasites, 3D7; 72 h).
Cc1[nH]c(/C=C2\N=C(c3ccc[nH]3)C3=C2OCCO3)cc1Cc1ccc(OC(F)(F)F)cc1 has an IC50 of 0.0248 µM (Plasmodium falciparum; parasite growth, SYBR Green fluorescence; Tm90-C2B (atovaquone-resistant), asexual blood stage; 72 h).
For COC(=O)[C@@H](NCc1cc2ccccc2nc1OCc1ccccc1)C(C)C, the growth was 101% (Pseudomonas aeruginosa; 4 µg/mL, together with: pentamidine 50 µM; baseline: control).
With Nc1nc(-c2ccccc2)nc2[nH]nc(Nc3ccc(C(F)(F)F)cc3)c12 the clinical score was 0.11 (coxsackievirus B3; 31-1-93, NMRI mice, CVB3 chronic myocarditis; oral, 100 mg/kg twice daily, day 17, dosed days 1 to 7, score scale 0 to 7; direction not given).
For Cn1cc(-c2cnc3[nH]cc(-c4cn(Cc5cccc(F)c5F)nn4)c3c2)cn1, the parasite growth was 8.6% (Plasmodium falciparum; nanoluciferase readout; 3D7 Hyp1-Nluc; 2 µM, 72 h; baseline: DMSO).
Under “zone of inhibition”, Cc1ccc(C(C)C)c(OC2=C(Cl)C(=O)c3ccccc3C2=O)c1 is recorded as 21 mm (Serratia marcescens; MTCC 4301; 10 µg/mL).
The fluorescein ingestion of S=c1ccss1 is reported as -31.4% (Drosophila melanogaster; liquid food feeding; 40 µg/mL, first instar larvae; baseline: solvent).
The EC50 of COCC(=O)N1CCC[C@H](C(=O)NCc2nc(C3=CCN(C)CC3)cs2)C1 is reported as > 5 µM (Plasmodium falciparum; SYBR Green growth; asexual blood-stage parasites, 3D7; 72 h).
CC(=O)ON=C1C=CC(=C(C#N)c2ccccc2)C=C1 has an MFC of 64 mg/L (≈ 242 µM) (Clavispora lusitaniae; broth dilution; ATCC 34449; 48 h, 37 °C).
With N=C1C=CC(=C(c2ccc(N)cc2)c2ccc(N)cc2)C=C1 the fluorescein ingestion was -79.1% (Drosophila melanogaster; fluorescence; liquid food, 40 µg/mL, first instar larvae; baseline: solvent).
C[C@@H]1[C@H](O)[C@@H](C)/C=C/C=C/C=C/C=C/C=C/C=C/C=C/[C@H](O[C@@H]2O[C@H](C)[C@@H](O)[C@H](N)[C@@H]2O)C[C@@H]2O[C@](O)(C[C@@H](O)C[C@@H](O)[C@H](O)CC[C@@H](O)C[C@@H](O)CC(=O)O[C@H]1C)C[C@H](O)[C@H]2C(=O)O has an antileishmanial activity of 57% and 56.3% and 59.2% (Leishmania major; eosin vital stain; promastigote; 500 µg/mL, 12 h).
With COc1cc(C(=O)N(C)C)ccc1-c1cc2nccc(-c3ccc4ccncc4c3)c2o1 the parasite growth was 2.89% (Plasmodium falciparum; LDH readout; 3D7 Hyp1-Nluc; 20 µM, 72 h; baseline: DMSO).
O=C1C=C2CC3(O)COc4cc(O)ccc4C3=C2C=C1O (stereo not shown) gave a fluorescein ingestion of -21.4% (Drosophila melanogaster; fluorescence; liquid food, 40 µg/mL, first instar larvae; baseline: solvent).
CNC(=O)c1cc(Oc2ccc(NC(=O)Nc3ccc(F)c(C(F)(F)F)c3)cc2)ccn1: toxicity “not toxic” (Drosophila melanogaster; rescue from lethality; ptc>dRet M955T; concentration not given, 25 °C, compound in food).
CNS(=O)(=O)c1ccccc1Nc1nc(Nc2ccc(N3CCOCC3)cc2OC)ncc1Br gave a parasite growth of 0.317% (Plasmodium falciparum; nanoluciferase readout; 3D7 Hyp1-Nluc; 20 µM, 72 h; baseline: DMSO).
COc1cc2c(cc1OC)[C@@H]1C(=O)c3ccc4c(c3O[C@@H]1CO2)C=CC(C)(C)O4 — result for “minimum progeny production”: 35% (human adenovirus C5; A549; concentration not given, 72 h; baseline: DMSO control).

A few entries again:
For COC(=O)[C@@H](NCc1cc2ccccc2nc1OCc1ccccc1)C(C)C, the growth was 101% (Pseudomonas aeruginosa; 4 µg/mL, together with: pentamidine 50 µM; baseline: control).
With Nc1nc(-c2ccccc2)nc2[nH]nc(Nc3ccc(C(F)(F)F)cc3)c12 the clinical score was 0.11 (coxsackievirus B3; 31-1-93, NMRI mice, CVB3 chronic myocarditis; oral, 100 mg/kg twice daily, day 17, dosed days 1 to 7, score scale 0 to 7; direction not given).
For Cn1cc(-c2cnc3[nH]cc(-c4cn(Cc5cccc(F)c5F)nn4)c3c2)cn1, the parasite growth was 8.6% (Plasmodium falciparum; nanoluciferase readout; 3D7 Hyp1-Nluc; 2 µM, 72 h; baseline: DMSO).
